Assay results pooled from the literature.
Parts stem from different laboratories: compare values within a part only.

Set 1
Target: Centromere-binding protein 1, full length, His-tagged (CBF1, Saccharomyces cerevisiae, UniProt P17106, residues 1-351)
UniProt P17106, sequence (whole entry, looked up): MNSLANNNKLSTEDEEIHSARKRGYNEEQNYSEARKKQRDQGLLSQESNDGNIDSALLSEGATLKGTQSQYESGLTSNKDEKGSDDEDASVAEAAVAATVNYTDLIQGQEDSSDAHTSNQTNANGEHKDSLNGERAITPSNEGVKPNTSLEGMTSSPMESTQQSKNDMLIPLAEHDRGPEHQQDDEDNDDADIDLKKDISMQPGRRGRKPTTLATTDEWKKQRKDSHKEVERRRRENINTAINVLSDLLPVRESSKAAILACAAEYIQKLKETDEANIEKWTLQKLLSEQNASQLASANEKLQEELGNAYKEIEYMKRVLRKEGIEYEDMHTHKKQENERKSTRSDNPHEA
Technique: competition protein-binding microarray
Form: double-stranded DNA, one strand shown
Matrix: in vitro
Concentration: 2 µM
Setting: whole 60-bp probe, lowest competitor level
Together with: Pho4 competitor, 0.05 µM
Direction: higher = stronger binding
Strand	fluorescence intensity [a.u.]
CTGAACCAGATGTTGCTCGTGGATTGGTTCGGTACCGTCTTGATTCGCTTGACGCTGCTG	65
CTTCTGTAAATTTGGTTAGTGGGTGGACGCGCCCCGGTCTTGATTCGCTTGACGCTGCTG	77.4
CTAACGAAGGTTTGTCACCATACTTACAAGCCAAGTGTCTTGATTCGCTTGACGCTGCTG	80.3
CATACCCAACCTTGATACGTGGGTGAAGATATTTGTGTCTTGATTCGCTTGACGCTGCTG	70.4
TACCAGCACTTATAACAAATGATGACAGTAAGCGCAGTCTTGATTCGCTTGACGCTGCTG	77.9
TGACTGAAGACGAATTACGTGCTTTTTTCCAACCTTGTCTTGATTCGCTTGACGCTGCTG	78.2
AATTGGTAAAACCATCACGTTTATGTTTTATTAAAAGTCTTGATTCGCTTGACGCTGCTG	468
AACATGAAATACGAATTTGTGATGAAGATACCCTCAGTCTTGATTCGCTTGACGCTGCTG	86.6
GGCTAGTGCCAATATCACAAACAATAGGGACATCCAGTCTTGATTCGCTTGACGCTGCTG	79.9
ACCCTCTTGGCCATTCGCGTGCGGATTGATTGCCGGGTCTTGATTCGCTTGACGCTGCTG	55.7
GCACTGATGCAGCCGTGCGTGTAACTAAAACATTTAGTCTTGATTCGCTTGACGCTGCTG	64.7
CTTTCCCGATCTTTTCACGTGGTATTAGCACATTTGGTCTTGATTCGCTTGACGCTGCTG	875
TTACTTTAACCTTTAGTAAATTCAGCGTCTTGACCAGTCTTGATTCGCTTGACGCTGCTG	67.2
CTAACGAAGGTTTTTCACGTGCGATACAAGCCAAGTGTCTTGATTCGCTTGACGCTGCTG	766
AGGTGCAGCCCCTGCCACGTGGGATGCGGTGTGCCCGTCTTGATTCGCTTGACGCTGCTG	416
CTTGGTATCAATTTCTTCGTGCTTTGCTTGGTTGAAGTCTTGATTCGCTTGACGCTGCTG	85.8
CTTTCCCGATCTTGACCGGTGGGTGTAGCACATTTGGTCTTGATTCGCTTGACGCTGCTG	60.8
CAGAGTAATGACTGTCATGATGAAGGCAAAAGGAGAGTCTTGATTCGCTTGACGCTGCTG	79.4
TAGGAGACTAGTGGTTATGTGACGGTGCGAACCTAAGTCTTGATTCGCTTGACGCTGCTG	60
ATGCCAAGTAAGGTTTTTCGGATTTAGGGTGGCGTCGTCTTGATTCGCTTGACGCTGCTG	61
GAAAGCATCCGACGCCGCGTGGTCAATTTGTTCCTTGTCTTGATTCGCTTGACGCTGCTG	76.5
AAGTTAAAACCTGTTGTCGTGGGTAAATATGATAGTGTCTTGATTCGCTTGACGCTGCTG	72.1
CTAACGAAGGTTTGAGATGTGGGTGACAAGCCAAGTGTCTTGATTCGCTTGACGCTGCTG	61.6
CCGCAGACTTTAAGTGCCGTGACGGGTTCCTGGTTAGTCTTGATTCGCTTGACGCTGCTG	70.2

Set 2
Target: Hepatocyte nuclear factor 3-alpha (Foxa1, Mus musculus, UniProt P35582, residues 1-468, full length assumed)
UniProt P35582, sequence (whole entry, looked up): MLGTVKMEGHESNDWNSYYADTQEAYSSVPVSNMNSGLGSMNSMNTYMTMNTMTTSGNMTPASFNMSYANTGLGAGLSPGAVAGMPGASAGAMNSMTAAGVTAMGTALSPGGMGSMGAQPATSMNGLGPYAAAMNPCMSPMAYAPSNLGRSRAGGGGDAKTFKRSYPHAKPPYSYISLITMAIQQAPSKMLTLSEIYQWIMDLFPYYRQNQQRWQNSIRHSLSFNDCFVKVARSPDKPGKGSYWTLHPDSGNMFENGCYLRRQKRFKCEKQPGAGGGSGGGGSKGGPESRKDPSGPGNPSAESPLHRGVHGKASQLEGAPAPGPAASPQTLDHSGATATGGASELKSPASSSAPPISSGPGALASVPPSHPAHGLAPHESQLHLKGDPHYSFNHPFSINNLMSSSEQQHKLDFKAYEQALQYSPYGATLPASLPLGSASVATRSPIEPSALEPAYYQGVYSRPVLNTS
Technique: EMSA with sequencing
Form: double-stranded DNA, one strand shown
Matrix: in vitro
Concentration: 10 and 20 nM
Setting: whole designed probe, mean of two concentrations, ends assumed
Reference: negative control set to 0
Direction: higher = stronger binding
Strand	normalised bound fraction [ratio]
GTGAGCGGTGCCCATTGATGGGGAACATCTTCCCCCTCTTCCTTGCCCCACCAGCTCACCTTCCCGGGTTATTTGCAGATAGGAAAATAAATAAAGCCGGCATTCGTTAACCCTCTTCACGCGCATACTGCTGTTTACTTTGGATGAATCATGGTCCTTTGGCGACGCCAGGCTCCGGGAGAGCAAAGCACCGTGTCAGGGCCATGATCCGGGGTGGCCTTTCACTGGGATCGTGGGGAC	0.433
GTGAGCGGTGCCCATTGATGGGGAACGAAAAGTGGCCTTAAGCTTTACTTTCCTTTAGGGATACTACAGGCCTTTTGCCATTTAACAGATATAAAATGACACAGTGGTATGGAATATGCTTGTTTACATTGTACCAGTGTCCTTGCATTGAGACTTGCTGCCCATAGTACTGCTGTGACATCTGAAGCATCCCTGACTGGCCCCACTGGTTATTCTTCTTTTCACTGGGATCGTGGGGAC	0.408
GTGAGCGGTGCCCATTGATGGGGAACGGCACCTGCCCTTCTGGCAACTTCTTGGAAACAGTTGGCAGTGTTTGCTTCCTGACTCCTAGCAGGCCGCTGGGGTGCAGCTATTGTGTTTAAGTAAACAGGCCACTCGCCTATTCAGCTTGGCAGCTTGATAGATGCCTACGCCTAGATCTTGTCAAATCGGTTTGTGGTTGAGTGGCTGCCAGGCCTAGAGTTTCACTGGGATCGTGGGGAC	0.369
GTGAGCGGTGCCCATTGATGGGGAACGTCAATTACGTGGGAAATAAAGATAAGGCAAATGCACTTGGTTCTCTGAACTATTCTGACATTAGAAGAAATGCCAAGTCAGCAGATATCTGCAGATTACATTTCACAATAACCTAATCATGCATTTGCAGCTTTCTGGAGCAAAACACTAACTGTTCTCCAAACAGCCACCTGACAATCTAAGGCTGAAACATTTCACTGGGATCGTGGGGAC	-0.0323
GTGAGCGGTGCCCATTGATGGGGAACAGTGCTTCATTTTTCGTGCCCGCCCCGCGCCCCGGGCAGGCCAGTCATGTGTTAAGTTGCGCTTCTTTGCTGTGATGTGGGTGGGGGAGGAAGAGTAATCTCAGTGCTGGCTCGGCTGCCCTGAGGGTGCTCAATCAAGCACAGGTTTCAAGTCTGGGTTCTGGTGTCCACTCACCCACCCCACCCCCCAAAATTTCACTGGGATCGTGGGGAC	-0.0519
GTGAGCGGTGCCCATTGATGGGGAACCAAGTTTGTGGTCCAGGAGCAACAGGTTATGCCATACAGCCTAGGTGTGTAGTAGGCTACACACCGTCTATGTTTGTGTTGTACACTCTTTGTGCAAACATTGTTGATCCATGACTCATGAAATCTTCTCAGAACATACCCCTGTTGTTAAGCGATACATGACTGTACTTTTTTTAAAAAGTCCAAGGATATATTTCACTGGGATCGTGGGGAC	0.45

Set 3
Target: RNA binding protein fox-1 homolog 2, RRM domain, GST-SBP tag (RBFOX2, Homo sapiens, UniProt O43251-10, residues 100-194)
Technique: RNA Bind-n-Seq
Form: RNA
Matrix: in vitro
Concentration: 365 nM
Setting: natural RNA segment, single round, ends assumed
Reference: no-protein control
Direction: higher = stronger binding
Target sequence (chain): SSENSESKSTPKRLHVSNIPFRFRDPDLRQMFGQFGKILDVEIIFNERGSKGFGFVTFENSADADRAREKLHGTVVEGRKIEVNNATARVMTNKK
Strand	RBNS enrichment (R)
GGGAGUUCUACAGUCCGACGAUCUGGGGAAGGGGCUGCCAACGAACCAGACUCAGUGACCACGUCAUGACAGAACAGCACAUCCUGGCCAGCACCCCUGGCUGGAGUGGGUUAAAGGGACGAGUCUGCCUUCCUGGAAUUCUCGGGUGCCAA	0.416
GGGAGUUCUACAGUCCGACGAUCAUGGCUUUACUUUGGCUGUCUUUUCUUCUGUCAUGUGCGAAGGGAGUUUGUAACUUUUGGAACCGGAGAGCCCUGUUUCUUUGGCUGGGCGGUUAUGGCAGCUGAAGGCAUGGAAUUCUCGGGUGCCAA	1.3
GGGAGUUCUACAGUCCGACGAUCCAGUAGAUGUAAUGGAAGCCAAAUUAAAUUGAUACAGAACCCAUUUCUCAGAGUCUUUUUUUUUUUUUGAGACAGAGUCUCGCUGUUACCCAGGCUGGAGUGCAAUGGCGUGGAAUUCUCGGGUGCCAA	0.342
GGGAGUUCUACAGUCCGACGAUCUUAACACUGCUGUGGUAAAUCCACGGUCCAAGCCCAGGCGGGCUGAGAAGAGAGAUGGCCUGAGCAGGAACGGAGCUCUCCUCAGUUGGAAGCAAUGUGGGGCGCUGCGAUGGAAUUCUCGGGUGCCAA	0.411
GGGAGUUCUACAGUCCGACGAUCCAUCUCCAAAAGUUUGUCUUUGAUUUUUUCCAAGCCCUUAGCCCCAUAAGCUUUGAAUCCUGUAGUUACAGUGGCAUAAAGGACUGACAAAACCUGGAUAAGGAAAAACCUGGAAUUCUCGGGUGCCAA	0.367
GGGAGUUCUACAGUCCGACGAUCUGAAUGAUCUCUUCCCUAGAGUUGAUUGUCGGGUACACAGUGUGAACCCCCGAAGACGGAACCUCACAGUCUUCCAUGUUCCCUUCUUAACUGUCGUGUGGCUCGUUGCUUGGAAUUCUCGGGUGCCAA	3.27
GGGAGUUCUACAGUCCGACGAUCCUUCAGGAAAUCACUGUAUUAGGAAUGUGCAAUGACUUAUAUAAAUAAAGCCAUUUUUUGAAACUGCUGGGGCCUGUGUUCUAAUUAUUCCCCCCUUUUUUAUUUCUGUUUGGAAUUCUCGGGUGCCAA	1.27
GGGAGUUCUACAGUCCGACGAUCUGGUGACUGAUUUCAAAUCAUGUUUUUUCUGCAAUGACUGUGGAGUUCCAUUCUUGGCAUCUACUCUGGACCAAGGAGCAUCCCUAAUUCUUCAUAGGGACCUUUAAAAAUGGAAUUCUCGGGUGCCAA	0.226
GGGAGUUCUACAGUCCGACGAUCUCAGCCAUGCUGCCGCCGAAGGGUGGCCCCCUCACCGAAUCUCCUUAGGAAGGGUUUUAUACAGACAGGUUAAAGGGCUCUGGUUUCAAGUCCCUUGUCCAUGCUGCACUUGGAAUUCUCGGGUGCCAA	0.271
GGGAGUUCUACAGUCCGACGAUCGCCCAAGUCUAGCUCUCCAGCAGAGCCACCCUCGGCUGGGGGCACCCACCUCACAGGCCACCUCAGUGGCGCCUGCCCACUGCGGGCUGGCUGCUCCUACCUACCUCGCCUGGAAUUCUCGGGUGCCAA	0.202
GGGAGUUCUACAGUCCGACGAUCCUUAAUGGCAAAAUAAUUAUGGUAAAAUACAAGUCUCGUGUUUAUUAUUCCUUAAGAAGUCUGUGUUAUAUUACCACGGAACACCCAAUAAAGCAAAAUGUGGUUGUUUCUGGAAUUCUCGGGUGCCAA	0.536
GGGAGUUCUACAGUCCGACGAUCGAACUAUUUUUGGAUAAAUUAUAUAUUUUCCUUCCUAGUAGAAGUGUUACUGCCUGUAACUAGCUCAAAAUACCAAUGCAGUUUCUGCAUUCUGGGUUUUGUUUUUCCUUUGGAAUUCUCGGGUGCCAA	0.315

Set 4
Target: Sal-like protein 4, full length isoform B (SALL4, Homo sapiens, UniProt Q9UJQ4-2, residues 1-616)
Technique: universal PBM
Form: double-stranded DNA, one strand shown
Matrix: in vitro
Concentration: not given
Setting: 8-mer, flanks averaged, mean of replicates
Direction: higher = stronger binding
Strand	E-score
TATAACAA	0.368
AACCCGAA	-0.0887
CGAGCTGC	-0.212
ATGCTAAT	0.209
GATAACCC	-0.144
CAACCTAA	-0.0105
ATAATGGA	0.278
AGTTTCTG	-0.147
ATTTCAGC	0.0911
GGGGGCGA	-0.244
GACATTAC	0.146
GAACGCTC	-0.352
AATTCTCG	0.0517
TACTGTCA	0.105
GGTCGCAC	-0.193
AAAGTTGG	0.114
CAGCCGAC	-0.293
AAAGATCG	0.0428
CCTGGGAG	-0.347
CGGTCCCC	-0.411
CCTACTCG	-0.173
ATTTTGGG	0.0984
AACAGCTA	0.0615

For quick reference, copied from above (set 1):
Strand	fluorescence intensity [a.u.]
TGACTGAAGACGAATTACGTGCTTTTTTCCAACCTTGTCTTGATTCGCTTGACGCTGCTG	78.2
AATTGGTAAAACCATCACGTTTATGTTTTATTAAAAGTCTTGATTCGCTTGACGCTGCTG	468
AACATGAAATACGAATTTGTGATGAAGATACCCTCAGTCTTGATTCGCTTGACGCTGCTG	86.6
GGCTAGTGCCAATATCACAAACAATAGGGACATCCAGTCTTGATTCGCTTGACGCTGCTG	79.9
ACCCTCTTGGCCATTCGCGTGCGGATTGATTGCCGGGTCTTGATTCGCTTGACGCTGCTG	55.7
GCACTGATGCAGCCGTGCGTGTAACTAAAACATTTAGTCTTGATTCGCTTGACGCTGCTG	64.7
CTTTCCCGATCTTTTCACGTGGTATTAGCACATTTGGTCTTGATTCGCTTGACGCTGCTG	875
TTACTTTAACCTTTAGTAAATTCAGCGTCTTGACCAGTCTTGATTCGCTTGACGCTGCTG	67.2
